# Assay results of several laboratories.
# Target: Ribosomal protein S6 kinase beta-1 (RPS6KB1, Homo sapiens, UniProt P23443)
SMILES,assay,test system,conditions,scale,endpoint,value
COc1cc(-n2cc3cc(F)cc(C(N)=O)c3n2)cc(Cl)c1C1CC(O)(CCO)Cc2ccccc21 (stereo not shown),"enzyme activity, inhibitor",,10 µM,,inhibition,1.35%
COc1c(OCCCN2CCOCC2)ccc2c1N=C(NC(=O)c1cnc(N)nc1)N1CCN=C21,"kinase activity, inhibitor",,1 µM,baseline: untreated control,remaining activity,97%
Cc1ccc(C)c(-c2ccc3nc(NC(=O)C4CCCCC4)nn3c2)c1,"enzyme activity, Dundee kinase panel",,10 µM,,remaining activity,105%
CS(=O)(=O)Nc1cccc(-c2csc3cnc(Nc4ccc(N5CCN(CCCCCOc6cccc7c6C(=O)N(C6CCC(=O)NC6=O)C7=O)CC5)cc4)nc23)c1 (stereo not shown),"probe labelling, inhibitor, KiNativ chemoproteomics",MOLT-4,1 µM,,inhibition,-23.6%
NC(=O)[C@@H](O)C[C@H]1CCc2sc3ncnc(O[C@H]4CC[C@H](N5CCOCC5)CC4)c3c21,"enzyme activity, inhibitor",,10 µM,,inhibition,5%
COc1c(Cl)cccc1Nc1c(-c2ccncc2C#C[C@@]2(C)CCCN2C(=O)/C=C/CN(C)C)[nH]c2c1C(=O)NCC2,"binding, competition with immobilised ligand",,3 µM,,remaining binding,90%
O=c1c(-c2ccc(Cl)c(CN3CCOCC3)c2)coc2cc(O)ccc12,"enzyme activity, inhibitor",,1 µM,,remaining activity,102%
CN1CCN(Cc2ccc(-c3ccc(CO[C@H]4CCC[C@@H]4NC(=O)c4cc(-c5cnn(C)c5)cnc4N)cc3)cc2)CC1,"enzyme activity, inhibitor",,0.1 µM,,inhibition,6%
Cc1cnc2nc1Nc1cccc(c1)COC/C=C/COCc1cc(ccc1OCCN1CCOCC1)N2,"binding, competition with immobilised ligand",,0.1 µM,,remaining binding,94%
O=C(O)CCC(=O)c1cccc(NS(=O)(=O)c2c[nH]c3ncccc23)c1,"kinase activity, radiometric",,10 µM,,remaining activity,99%
COc1ccc(O)cc1-c1c[nH]c2ncc(-c3cncc(C(=O)N(C)C)c3)cc12,"binding, competition with immobilised ligand",,0.2 µM,,inhibition,0.12%
O=C(Cc1ccc(OCc2ccccc2)cc1)NC1(C(=O)O)CCN(C(=O)c2ccc(-c3cccc(Cl)c3)cc2)CC1,"enzyme activity, inhibitor",,10 µM,,activity vs control,107%
C=CC(=O)N1CCCC(n2c(=O)c3ncccc3n(Cc3ccc(Oc4ccccc4)cc3)c2=O)C1 (stereo not shown),"cell-free assay, competition with immobilised ligand",,1 µM,,remaining binding,88%

# Some of these lines once more:
SMILES,assay,test system,conditions,scale,endpoint,value
Cc1ccc(C)c(-c2ccc3nc(NC(=O)C4CCCCC4)nn3c2)c1,"enzyme activity, Dundee kinase panel",,10 µM,,remaining activity,105%
